{"data": "Published values of several laboratories", "target": "Dual specificity protein kinase TTK (TTK, Homo sapiens, UniProt P33981)", "note": "Lines come from different studies, so protocols differ. Several values in a cell are separate wells, animals, samples, runs or records."}
{"Structure (SMILES)": "Cc1cccc(O[C@H]2CCC[C@@H](C(C)CNCc3ccncc3)C2)c1 (relative stereo)", "test": "enzyme activity, inhibitor", "conditions": "1 µM", "quantity": "inhibition", "result": "-2%"}
{"Structure (SMILES)": "CN1C[C@@H](c2c[nH]c3cc(Br)ccc23)NC[C@@H]1c1c[nH]c2cc(Br)ccc12", "test": "enzyme activity, inhibitor", "conditions": "10 µM", "quantity": "remaining activity", "result": "102%"}
{"Structure (SMILES)": "Cc1ccc(C(=O)Nc2ccc(CN3CCN(C)CC3)c(C(F)(F)F)c2)cc1C#Cc1cnc2cccnn12", "test": "target engagement, NanoBRET", "system": "human cells", "quantity": "Hill slope", "result": 0.113}
{"Structure (SMILES)": "CN1CCN(Cc2ccc(-c3ccc(CO[C@H]4CCC[C@@H]4NC(=O)c4cc(-c5cnn(C)c5)cnc4N)cc3)cc2)CC1", "test": "enzyme activity, inhibitor", "conditions": "0.1 µM", "quantity": "inhibition", "result": "8%"}
{"Structure (SMILES)": "COc1c(Cl)cccc1Nc1c(-c2ccncc2C#C[C@@]2(C)CCCN2C(=O)/C=C/CN(C)C)[nH]c2c1C(=O)NCC2", "test": "binding, competition with immobilised ligand", "conditions": "3 µM", "quantity": "remaining binding", "result": "36%"}
{"Structure (SMILES)": "NC(=O)C[C@H]1CCc2sc3ncnc(O[C@H]4CC[C@H](N5CCOCC5)CC4)c3c21", "test": "enzyme activity, inhibitor", "conditions": "10 µM", "quantity": "inhibition", "result": "-10%"}
{"Structure (SMILES)": "CC(C)=CC1OC(C)(C)C2C=C3C(=O)C(Cl)=CC(O)C3C3C(O)C4OC4C(=O)C132 (stereo not drawn)", "test": "cell-free assay, competition with immobilised ligand", "conditions": "10 µM", "quantity": "remaining binding", "result": "88%"}
{"Structure (SMILES)": "C=CC(=O)N1CCCC(n2c(=O)c3ncccc3n(Cc3ccc(Oc4ccccc4)cc3)c2=O)C1 (stereo not drawn)", "test": "cell-free assay, competition with immobilised ligand", "conditions": "1 µM", "quantity": "remaining binding", "result": "99%"}
{"Structure (SMILES)": "C=CC(=O)N1CCc2ccc(-n3c(=O)ccc4cnc5ccc(-c6cnn(C)c6)cc5c43)cc21", "test": "KINOMEscan", "conditions": "1 µM", "how to read": "reference: DMSO control", "quantity": "remaining binding", "result": "80%"}
{"Structure (SMILES)": "c1ccc2c(Nc3cc(C4CCC4)[nH]n3)nc(Nc3ccc4nc[nH]c4c3)nc2c1", "test": "enzyme activity, inhibitor", "conditions": "0.25 µM", "quantity": "remaining activity", "result": "40%"}
{"Structure (SMILES)": "CNC(=O)C[C@H](Cc1ccc(C#N)cc1)NC(=O)c1cc(-c2ccc(CN[C@H](C)c3ccc(C)cc3)o2)ccc1Cl", "test": "enzyme activity, inhibitor", "conditions": "1 µM", "quantity": "activity vs control", "result": "108%"}
{"Structure (SMILES)": "CN1CC[C@@H](COc2cnc(C#N)cc2-c2ccn3nc(NC(=O)C4CC4)cc3c2)C1", "test": "enzyme activity, inhibitor", "conditions": "1 µM", "quantity": "inhibition", "result": "-17%"}
{"Structure (SMILES)": "COc1cc(Nc2nccc(-c3cnn4nc(OC)ccc34)n2)cc(C(F)(F)F)c1", "test": "binding, competition with immobilised ligand", "conditions": "1 µM", "quantity": "remaining binding", "result": "81%"}
{"Structure (SMILES)": "CNC1C[S+]2CC[S+]3CC[S+](C1)[Ru-4]321([N]=C=S)[n]2c3ccc(OC)cc3c3c4c(c5cc(F)c[n+]1c5c32)C(=O)NC4=O (stereo not drawn)", "test": "KinomeScan", "conditions": "0.1 µM", "how to read": "reference: untreated", "quantity": "remaining binding", "result": "49%"}
{"Structure (SMILES)": "C=CC(=O)Nc1cccc(-c2cnc3[nH]cc(C(=O)NC(C)(C)C)c3n2)c1", "test": "kinase activity", "conditions": "0.1 µM", "quantity": "inhibition", "result": "0% and -1%"}
{"note": "Some of these lines once more:"}
{"Structure (SMILES)": "COc1cc(Nc2nccc(-c3cnn4nc(OC)ccc34)n2)cc(C(F)(F)F)c1", "test": "binding, competition with immobilised ligand", "conditions": "1 µM", "quantity": "remaining binding", "result": "81%"}
